Measurements gathered from unrelated publications.
Every numbered part comes from another study and shows a few of its results, in no order. Positions count from the first letter of the parent shown.

Series 1
Target: ABI1, truncated, D143A, DHFR fusion (Arabidopsis thaliana)
Method: DHFR PCA, deep sequencing
Medium: yeast
Setting: methotrexate growth selection, single substitutions
Added: (+)-ABA 0.0091 µM
Reference: wild-type fitted maximum
Reading: higher = stronger binding
Endpoint: relative binding score
Parent: PYL1, truncated, DHFR fusion (Arabidopsis thaliana); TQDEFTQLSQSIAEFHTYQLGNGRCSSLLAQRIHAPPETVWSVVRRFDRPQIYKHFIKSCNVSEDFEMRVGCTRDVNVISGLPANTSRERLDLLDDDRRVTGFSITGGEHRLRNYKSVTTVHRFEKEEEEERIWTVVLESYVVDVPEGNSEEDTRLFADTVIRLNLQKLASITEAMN; partner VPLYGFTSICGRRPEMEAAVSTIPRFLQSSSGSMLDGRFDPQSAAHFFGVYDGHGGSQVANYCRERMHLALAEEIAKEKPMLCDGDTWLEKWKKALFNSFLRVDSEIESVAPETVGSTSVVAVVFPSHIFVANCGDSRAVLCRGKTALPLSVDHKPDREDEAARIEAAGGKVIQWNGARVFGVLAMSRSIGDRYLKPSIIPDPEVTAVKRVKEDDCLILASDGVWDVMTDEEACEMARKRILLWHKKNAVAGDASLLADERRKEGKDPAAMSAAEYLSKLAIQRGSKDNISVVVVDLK
M68N: -0.332%
S63P: 44.8%
T86E: 4.09%
E130Q: 23.2%
L156D: -0.366%

Series 2
Molecule: PhoQ, residues 284 288 289 292 302 303 SSTLLI
Method: Sort-seq
Measured: YFP reporter
Medium: E. coli
Setting: PhoQ-PhoP variant library
Added: 10 µM Mg2+
Reference: high Mg2+ state
Reading: higher = stronger signaling
Endpoint: fold induction
PhoP, residues 12 14 15 18 19 LFHKL (Escherichia coli, UniProt P23836): 2.05
PhoP, residues 12 14 15 18 19 QQAYL (Escherichia coli, UniProt P23836): 11.5
PhoP, residues 12 14 15 18 19 GMGLL (Escherichia coli, UniProt P23836): 2.86

Series 3
Target: Histone acetyltransferase KAT6A, winged helix 1, GST fusion (KAT6A, Homo sapiens, UniProt Q92794, residues 1-85)
Method: protein binding microarray
Molecule type: double-stranded DNA, one strand shown
Medium: in vitro
Tested at: not given
Setting: 8-mer, flanks averaged, mean of 2 arrays, mostly near background
Reference: not given
Reading: higher = stronger binding
Endpoint: E-score
Target sequence (chain): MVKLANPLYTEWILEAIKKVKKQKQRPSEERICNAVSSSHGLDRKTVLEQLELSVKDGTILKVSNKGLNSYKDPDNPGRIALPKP
AAAGCTCG: -0.092
CTGTGAGC: -0.0659
CACGGTCA: 0.0187
TAGAATAA: -0.242
GATGTAAA: -0.00789
AATCTGTC: -0.16
CGATTTAG: 0.0422
CGTTGGTA: 0.0632

Series 4
Target: CCNE1, cyclin fold, Cln2 fusion (human)
Method: yeast growth competition, sequencing
Medium: yeast
Setting: strong parent motif
Reference: not given
Reading: higher = stronger binding
Endpoint: normalised enrichment score
Parent: GMNC docking peptide (human); KNAKRNLSSEFAN
KNSKRNLSSEFAN [A3S]: 0.391
KNAKRALSSEFAN [N6A]: 0.206
KNAPRNLSSEFAN [K4P]: 0.293

For quick reference, copied from above (series 4):
KNAKRALSSEFAN [N6A]: 0.206
